Measurements collected from several papers.
Each numbered part is a random draw from the data of one study; scales do not carry over between parts.

Study 1
Target: RNA binding protein fox-1 homolog 2, RRM domain, GST-SBP tag (RBFOX2, Homo sapiens, UniProt O43251-10, residues 100-194)
Method: RNA Bind-n-Seq
Molecule type: RNA
Matrix: in vitro
Tested at: 365 nM
Setting: natural RNA segment, single round, ends assumed
Relative to: no-protein control
Direction: higher = stronger binding
Constant ends, left off below: GGGAGUUCUACAGUCCGACGAUC … UGGAAUUCUCGGGUGCCAA
Strand | RBNS enrichment (R)
UUUCCUUUGUACUUUAAAAAAAAGUAUGCUAGCACUAUUGUACCUUGAAAGGAUUUCCACCAGACUGUCUUGAGUAGUGACUUCUUUGGUGAGGCAAGAAGGAUAUACAU | 10.4
ACGGUGAGCUUUAAUGUCUAUGCUGACAGUUAGGUUUUGCUCUCUUUUGUAACAGGUUACGUAGACCAGCAGUGUUUAAAUCUAAAUACGUUGUGAGUCUGUUAUCUGUC | 0.379
GAAAUGUUUUCUUAAGCUUUUCCUUUCUCUUACACCUGCCAUGCCUCCCCAAAUUGGGCAUUUAAUUCAUCUUUAAACUGGUUGUUCUGUUAGUCGCUAACUUAGUAAGU | 0.391
AGUUCAGAGUGGGAUUUUUUUCUUUGAACCUUAAAGGUUUUAUUUUAGAACGAGGCACAGAUCGCACAUUUUCUACUUGAGGAUCUUUUUUAGUGGUGAAUACCAAGAUU | 2.59
AUUCUGGUGUUUGUAACACCAAAGUGGAAAAUACAGCCCAUGGCAUGGGUGCUGUGAAGUUGAGAUGAGAAAAUGAUAUGACCUUGCUGUGGGUCUCUGGAUCCUGACCA | 1.06
AUUUAUUUUUCUAUUAUAGCCAUAUUUAUAUAUUUAUGCACUUGUAAAUAAAUGUAUAUGUGUUUCUAUAAUUCUGGAGAGAUAUGGAAUCCUCCCCUUUCUGGCACAAG | 0.585
AAGGACAACUUCAGGAGGGUGCAGUGAGGGCAGCCGUGUGGAGUCUUGCUUUGCAUUUGAUAGUGUCAAAUAAUUGCUUGUACCCUAGGUAAUGACCAGUGGAUUUUUGU | 0.99

Study 2
Target: Histone acetyltransferase KAT6A, both winged helices, GST fusion (KAT6A, Homo sapiens, UniProt Q92794, residues 1-181)
Method: protein binding microarray
Molecule type: double-stranded DNA, one strand shown
Matrix: in vitro
Tested at: not given
Setting: 8-mer, flanks averaged, mean of 2 arrays, mostly near background
Relative to: not given
Direction: higher = stronger binding
Target sequence (chain): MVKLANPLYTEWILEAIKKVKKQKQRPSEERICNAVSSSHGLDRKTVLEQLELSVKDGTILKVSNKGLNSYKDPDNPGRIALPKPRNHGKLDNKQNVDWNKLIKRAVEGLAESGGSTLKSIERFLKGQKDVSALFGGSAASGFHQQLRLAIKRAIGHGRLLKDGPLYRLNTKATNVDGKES
Strand | E-score
GTAAAGAC | 0.0618
ATAAGCGC | 0.256
CTGGCGGA | -0.0129
CACCCGTG | 0.156
GCGTGACA | 0.1
GCAGAGTA | -0.0595
ACTTGAGG | -0.238
CAGGTTGA | 0.00285

Study 3
Target: Myc proto-oncogene protein, bHLH-zipper, MAX partner unstated (MYC, Homo sapiens, UniProt P01106, residues 368-449)
Chain of UniProt P01106 (368-449, looked up): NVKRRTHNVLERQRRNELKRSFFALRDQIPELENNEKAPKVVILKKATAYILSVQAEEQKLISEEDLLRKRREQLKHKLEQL
Method: protein-binding microarray
Molecule type: double-stranded DNA, one strand shown
Matrix: in vitro
Tested at: not given
Setting: k-mer, scored over probes, only values ≥0.25
Direction: higher = stronger binding
Strand | E-score
ATCGCATG | 0.37
GCGCCACC | 0.299
ACATGGCT | 0.328
ACGTGAGT | 0.289
AGCACGGG | 0.294
ATGGCCAT | 0.291
ACGCTGCA | 0.265
CACCTCCA | 0.253
ACCACCTG | 0.336

Mixed results
Molecule | target | assay | test system | setting | how to read | endpoint | value
PhoQ, residues 284 288 289 292 302 303 TGYLSA | PhoP, residues 12 14 15 18 19 NYFTV (Escherichia coli, UniProt P23836) | Sort-seq, measured: YFP reporter | E. coli | PhoQ-PhoP variant library, added: 10 µM Mg2+ | relative to: high Mg2+ state, higher = stronger signaling | fold induction | 10.7

For quick reference, copied from above (study 2):
Strand | E-score
CAGGTTGA | 0.00285
GCGTGACA | 0.1
CTGGCGGA | -0.0129
